# Experimental data pooled from the literature.
# ± marks the error that the study gave.
SMILES,assay,system,conditions,how to read,endpoint,value
CC[C@H](C)[C@H](NC(=O)[C@H](C)NC(=O)[C@@H](N)C(C)C)C(=O)N[C@H](C(=O)N[C@H](C(=O)N[C@@H](CC(C)C)C(=O)N[C@H](C(=O)N[C@@H](CCCCN)C(=O)O)C(C)C)C(C)C)[C@@H](C)O,,air-water interface,,,surface partition coefficient,4.35e-06 m
COCC1CN(C2CCN(c3cc(OC)c(Nc4ncc(Br)c(Nc5ccc6c(c5P(C)(C)=O)OCCO6)n4)cc3C)CC2)C1,,human,"oral, 10 to 240 mg once daily",,grade ≥3 treatment-related diarrhoea,3.7%
C[Si](C)(C[C@@H](CN)CC(=O)O)C1CC1,neuromuscular coordination,Wistar rat male,"oral, 100 mg/kg, 1 h",,performance time,180 s
Cc1ccccc1/N=N/c1ccc(/N=N/c2c(O)ccc3ccccc23)c(C)c1,,rat whole blood,"16.0 µg/L, freeze-thaw cycle 1",,freeze-thaw stability deviation,0.7%
O=C(NCCCN(CCCCN(CCCNC(=O)c1cccc(=O)n1[O-])C(=O)c1cccc(=O)n1[O-])C(=O)c1cccc(=O)n1[O-])c1cccc(=O)n1[O-].[89Zr+4],radio-TLC,PBS,"7 d, pH 7.4, 37 °C, with: K^+ 10-fold excess",,intact complex,98.1 ± 0.7%
Cc1[nH]nc2c1N=C(c1ccccc1Cl)c1cnc(NCCOCCO)cc1N2,,"human, feces and urine","oral, 10 mg",reference: dose,excretion in feces and urine,3.45%
CCn1c(=O)n(CCO)c(=O)c2c1nc(/C=C/c1ccc(OC)c(OC)c1)n2C,,"healthy humans, plasma","oral, 40 mg, with: rifampin 600 mg/day",reference: with over without rifampin,geometric mean ratio AUCinf,0.3
N#Cc1nc(N2CCOCC2)nc(N(Cc2ccc(F)cc2)CC2CCCNC2)n1 (stereo not drawn),,CD-1 mouse female,"intraperitoneal, 10 mg/kg",reference: brain over plasma,brain/plasma AUC ratio,0.15
N=C(N)NCCC[C@@H]1NC(=O)[C@H](Cc2c[nH]c3ccccc23)NC(=O)[C@@H](CC2CCCCC2)NC(=O)[C@@H]2CCCN2C(=O)[C@@H](NC(=O)CCc2ccccc2)CCCNC1=O,,"C57BL/6J mouse, feces","intravenous, 1 mg/kg, 24 h",,unchanged drug excreted,≤ 16%
CN(C)S(=O)(=O)c1cc(C(=O)O)ccc1NCCCCCCCC(F)(F)F,,WT and Ts65Dn mice,"ip, 0.2 mg/kg daily, 4 weeks",,organ weights,no effect
CCC1CNC(CC)CN(C(C(=O)[O-])c2ccc(C(=O)[O-])cc2)C(CC)CN(CC(=O)[O-])C(CC)CN1.[Mn+2] (stereo not drawn),ICP-MS,"BALB/c mice, kidney","intravenous, 0.05 mmol/kg, 5 min",,Mn content,9.61 µg/g
C#CCOc1ccc(/C=C2\SC(=O)N(CC(=O)NCc3ccccc3)C2=O)cc1,inverse Kirkwood-Buff integrals,binary solvent mixture,"298.15 K, mole fraction x1 0.20",,"Kirkwood-Buff integral G1,3",-290 cm³/mol
CC(C)[C@H](NC(=O)CNC(=O)[C@H](CCC(N)=O)NC(=O)[C@H](C)N)C(=O)O,,"human, both sexes, plasma","intravenous infusion, 45 mg/kg/h, 2 h infusion, geometric mean",,clearance,983 mL/min/kg
N=C(N)NCCC[C@H](NC(=O)[C@@H]1CCCN1C(=O)[C@H](Cc1ccccc1)NC(=O)[C@@H]1CCCN1C(=O)[C@H](Cc1c[nH]cn1)NC(=O)[C@@H](N)Cc1ccccc1)C(=O)O,,"Sprague-Dawley rat male, plasma","intravenous, 10 mg/kg",,MRT(0-inf),20.6 ± 1.89 min
Fc1cc2scnc2cc1Nc1ncnc2sc(C3=CCCNC3)cc12,,human liver microsomes,1 µM,,intrinsic clearance,< 12 mL/min/g protein
Cn1c(=O)oc2ccc(-c3ccc(CC(C#N)NC(=O)C4CNCCCO4)c(F)c3)cc21 (stereo not drawn),,human,"oral, 40 mg once daily, TEAE, multiple ascending dose",,triglycerides increased incidence,33.3%
CC(=O)N[C@H](CC(=O)O)C(=O)N[C@H](Cc1c[nH]c2ccccc12)C(=O)N[C@H](Cc1ccccc1)C(=O)N[C@H](CCCCN)C(=O)N[C@H](C)C(=O)N[C@H](Cc1ccccc1)C(=O)N[C@H](Cc1ccc(O)cc1)C(=O)N[C@H](CC(=O)O)C(=O)N[C@H](CCCCN)C(=O)N[C@@H](C(=O)N[C@H](C)C(=O)N[C@H](CCC(=O)O)C(=O)N[C@H](CCCCN)C(=O)N[C@H](Cc1ccccc1)C(=O)N[C@H](CCCCN)C(=O)N[C@H](CCC(=O)O)C(=O)N[C@H](C)C(=O)N[C@H](Cc1ccccc1)C(N)=O)C(C)C,,"statin-treated high-risk CHD women, plasma","oral, 300 mg daily, day 1, 0 to 2 h, mean, undetectable set to 0",,Cmax,6.86 ng/mL
COc1ccc2cc(-c3ccc(-c4ccc(C)cn4)nc3)oc2c1,,aqueous HEPES buffer,"pH 7.4, zinc(II) complex",,absorption maximum,373 nm
CC(C)C[C@@H](NC(=O)[C@H](NC(=O)[C@H]1CCCN1)[C@H](C)O)C(=O)N[C@H](Cc1c[nH]cn1)C(=O)N[C@@H](C(=O)N[C@H](Cc1c[nH]cn1)C(=O)N[C@H](CC(N)=O)C(=O)N[C@H](CCCNC(=N)N)C(=O)N[C@H](CCCNC(=N)N)C(=O)N[C@H](CCCNC(=N)N)C(=O)N[C@H](CCCNC(=N)N)C(=O)N[C@H](CCCNC(=N)N)C(N)=O)[C@H](C)O,,"beagle dog, plasma","oral, 20 mg/kg, single dose",,Cmax,567 ng/mL
CC(C)(C)NCC(SS(=O)(=O)O)c1ccccc1 (stereo not drawn),,mouse liver microsomes,without NADPH,,intrinsic clearance,2.5 µL/min/mg
CC(C)(O)c1ncc([S@](N)(=O)=NC(=O)Nc2c3c(cc4c2CCC4)CCC3)s1,,"healthy human subjects, plasma","oral, 100 mg, fasted, tablet",reference: crystalline suspension,Cmax relative to suspension,78%
O=C(NCCN1C(=O)C=CC1=O)[O][Pt-2]12([O]C(=O)NCCN3C(=O)C=CC3=O)([NH2+][C@@H]3CCCC[C@H]3[NH2+]1)[O]C(=O)C(=O)[O]2,,"BALB/c mouse, serum","intravenous, equimolar single dose",reference: compound over oxaliplatin,serum AUC ratio,~25 fold
CC(=O)OC[C@H]1O[C@@H](Sc2sc(C(=O)c3ccc(C)cc3)c(N)c2-c2nc3ccccc3s2)[C@H](OC(C)=O)[C@@H](OC(C)=O)[C@H]1OC(C)=O,,DMEM,72 h,,maximum nontoxic concentration,100 µg/mL
C=C(c1cc(F)c(C(=O)O)c(F)c1)c1cc2c(cc1C)C(C)(C)CCC2(C)C,,"Sprague-Dawley rat, male, plasma","oral, 100 mg/kg, 12 h, sesame oil vehicle",,LDL level,7 ± 2 mg/dL
CCC(=O)NC1CN(CCCCC2CCN(CC(=O)N3c4ccccc4NC(=O)c4ccccc43)CC2)CCN(CCCOc2nsnc2C2=CCCN(C)C2)C1 (stereo not drawn),,PBS,"100 µM, 48 h, pH 7.4, 22 °C",,chemical stability,stable
CC(C)c1cnc(-c2cc(Cl)ccc2F)cc1Nc1ccncc1C(=O)NC(CO)CO,"monotherapy, measured: fatigue",human patients,"oral, dose not given, grade 4, phase I A",,patients with treatment-related adverse event,0%
Cc1cc(NC(=O)[C@H](O)c2cc(F)cc(F)c2)ccc1-c1cnc(N)c(C(=O)NC(C)C)c1,,"mouse, athymic nude Foxn1nu, female, plasma","oral, 100 mg/kg",,free Cmax,839 nM
Cc1ccc(C(C)C)cc1.O=C(N=P(c1ccccc1)(c1ccccc1)c1ccccc1)c1ccccn1.[Cl-].[Cl-].[Ru+2],"ICP-MS, measured: ruthenium","NOD.CB17-Prkdc scid/J mouse, plasma","intraperitoneal, 5 mg/kg, after first dose",,absorption rate constant,1.39 h⁻¹
O=C(CNc1ccc(F)c(S(=O)(=O)N2CCOCC2)c1)Nc1ccc(F)c(Cl)c1,,water,,,kinetic solubility,219 µM
O=C(O)C1CN(Cc2ccc(-c3noc(-c4ccc(OCC[18F])c(C(F)(F)F)c4)n3)cc2)C1,,"rat, pancreas","intravenous, 30 min",,tracer uptake,0.32 %ID/g
CC(C)CCCC(C)CCCC(C)CCO[C@@H]1O[C@H](CO)[C@@H](O[C@H]2O[C@H](CO)[C@@H](O)[C@H](O)[C@H]2O)[C@H](O)[C@H]1O (stereo partly drawn),dynamic surface tension,,0.0036 mmol/L,,surface tension at induction time,65.5 mN/m
CN1C(=O)[C@@H](Cc2ccc(O)cc2)NC(=O)CNC(=O)[C@H](Cc2ccc3ccccc3c2)NC(=O)[C@H](CCCNC(=N)N)NC(=O)[C@H]1CCCNC(=O)c1ccc(CNC(=O)CN2CCN(CC(=O)O)CCN(CC(=O)O)CCN(CC(=O)O)CC2)cc1 [gallium-68 labelled],,human patients,"dose not given, vital signs and blood counts",,tolerability,not toxic
COc1cc(OC)cc(C2=C3C(C)=C(I)C(C)=[N+]3[B-](F)(F)n3c(/C=C/c4cccs4)c(I)c(C)c32)c1,,dichloromethane,,,absorption maximum,599 nm

# Some of these lines once more:
SMILES,assay,system,conditions,how to read,endpoint,value
CC(=O)N[C@H](CC(=O)O)C(=O)N[C@H](Cc1c[nH]c2ccccc12)C(=O)N[C@H](Cc1ccccc1)C(=O)N[C@H](CCCCN)C(=O)N[C@H](C)C(=O)N[C@H](Cc1ccccc1)C(=O)N[C@H](Cc1ccc(O)cc1)C(=O)N[C@H](CC(=O)O)C(=O)N[C@H](CCCCN)C(=O)N[C@@H](C(=O)N[C@H](C)C(=O)N[C@H](CCC(=O)O)C(=O)N[C@H](CCCCN)C(=O)N[C@H](Cc1ccccc1)C(=O)N[C@H](CCCCN)C(=O)N[C@H](CCC(=O)O)C(=O)N[C@H](C)C(=O)N[C@H](Cc1ccccc1)C(N)=O)C(C)C,,"statin-treated high-risk CHD women, plasma","oral, 300 mg daily, day 1, 0 to 2 h, mean, undetectable set to 0",,Cmax,6.86 ng/mL
COc1ccc2cc(-c3ccc(-c4ccc(C)cn4)nc3)oc2c1,,aqueous HEPES buffer,"pH 7.4, zinc(II) complex",,absorption maximum,373 nm
CC(C)C[C@@H](NC(=O)[C@H](NC(=O)[C@H]1CCCN1)[C@H](C)O)C(=O)N[C@H](Cc1c[nH]cn1)C(=O)N[C@@H](C(=O)N[C@H](Cc1c[nH]cn1)C(=O)N[C@H](CC(N)=O)C(=O)N[C@H](CCCNC(=N)N)C(=O)N[C@H](CCCNC(=N)N)C(=O)N[C@H](CCCNC(=N)N)C(=O)N[C@H](CCCNC(=N)N)C(=O)N[C@H](CCCNC(=N)N)C(N)=O)[C@H](C)O,,"beagle dog, plasma","oral, 20 mg/kg, single dose",,Cmax,567 ng/mL
CC(C)(C)NCC(SS(=O)(=O)O)c1ccccc1 (stereo not drawn),,mouse liver microsomes,without NADPH,,intrinsic clearance,2.5 µL/min/mg
